{"data": "Measured values of several laboratories", "note": "Each numbered part is a random draw from the data of one study; scales do not carry over between parts. Positions count from the first letter of the parent shown."}
{"data": "Sample 1", "target": "CCNB1, cyclin fold, Cln2 fusion (human)", "technique": "yeast growth competition, sequencing", "matrix": "yeast", "notes": "weak parent motif", "reference": "not given", "reading": "higher = stronger binding", "parent": "GMNC docking peptide (human); KNAKRNLSSEFAN"}
{"Substitution": "K4V", "normalised enrichment score": 0.334}
{"Substitution": "F11K", "normalised enrichment score": 0.044}
{"Substitution": "F11L", "normalised enrichment score": -0.0357}
{"Substitution": "F11P", "normalised enrichment score": -0.41}
{"data": "Sample 2", "target": "ABI1, truncated, D143A, DHFR fusion (Arabidopsis thaliana)", "technique": "DHFR PCA, deep sequencing", "matrix": "yeast", "notes": "methotrexate growth selection, single substitutions", "with": "(+)-ABA 2500 µM", "reference": "wild-type fitted maximum", "reading": "higher = stronger binding", "parent": "PYL1, truncated, DHFR fusion (Arabidopsis thaliana); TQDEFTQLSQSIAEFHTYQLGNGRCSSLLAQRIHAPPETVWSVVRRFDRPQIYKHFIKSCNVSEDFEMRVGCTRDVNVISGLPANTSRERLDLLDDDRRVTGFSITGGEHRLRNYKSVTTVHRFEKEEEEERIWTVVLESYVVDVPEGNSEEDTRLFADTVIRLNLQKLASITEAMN; partner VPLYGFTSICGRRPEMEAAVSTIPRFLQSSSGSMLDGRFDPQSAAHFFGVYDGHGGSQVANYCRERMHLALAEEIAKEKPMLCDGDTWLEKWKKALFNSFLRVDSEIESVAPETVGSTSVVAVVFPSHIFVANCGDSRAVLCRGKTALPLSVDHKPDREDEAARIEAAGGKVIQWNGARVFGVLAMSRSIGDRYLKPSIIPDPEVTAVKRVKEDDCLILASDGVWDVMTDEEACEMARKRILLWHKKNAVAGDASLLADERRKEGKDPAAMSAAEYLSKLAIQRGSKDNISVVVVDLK"}
{"Substitution": "F157S", "relative binding score": "12.3%"}
{"Substitution": "P37F", "relative binding score": "71.1%"}
{"Substitution": "D75F", "relative binding score": "93.1%"}
{"data": "Sample 3", "target": "Sal-like protein 4, full length isoform B (SALL4, Homo sapiens, UniProt Q9UJQ4-2, residues 1-616)", "technique": "universal PBM", "molecule type": "double-stranded DNA, one strand shown", "matrix": "in vitro", "tested at": "not given", "notes": "8-mer, flanks averaged, mean of replicates", "reading": "higher = stronger binding"}
{"Oligonucleotide": "GGCTGAAA", "E-score": -0.0582}
{"Oligonucleotide": "AACGAAAT", "E-score": 0.226}
{"Oligonucleotide": "CTTGGCTA", "E-score": -0.0487}
{"Oligonucleotide": "AGAAGGTG", "E-score": 0.0161}
{"Oligonucleotide": "ACACCTCG", "E-score": -0.0353}
{"data": "Further values, each from its own experiment"}
{"Substance": "PhoQ, residues 284 288 289 292 302 303 SSTLLI", "target": "PhoP, residues 12 14 15 18 19 IFFTR (Escherichia coli, UniProt P23836)", "assay": "Sort-seq, refers to: YFP reporter", "system": "E. coli", "setting": "PhoQ-PhoP variant library, with: 10 µM Mg2+", "scale": "reference: high Mg2+ state, higher = stronger signaling", "endpoint": "fold induction", "result": 2.49}
{"note": "A few entries again (sample 3):"}
{"Oligonucleotide": "AGAAGGTG", "E-score": 0.0161}
